{"data": "Experimental data from different studies", "note": "Numbered parts are unrelated; each lists some results of a single study. Positions count from the first letter of the parent shown."}
{"data": "Sample 1", "target": "RNA binding protein fox-1 homolog 2, RRM domain, GST-SBP tag (RBFOX2, Homo sapiens, UniProt O43251-10, residues 100-194)", "method": "RNA Bind-n-Seq", "molecule type": "RNA", "medium": "in vitro", "concentration": "365 nM", "notes": "natural RNA segment, single round, ends assumed", "reference": "no-protein control", "direction": "higher = stronger binding", "constant ends, left off below": "GGGAGUUCUACAGUCCGACGAUC … UGGAAUUCUCGGGUGCCAA", "Residues (chain)": "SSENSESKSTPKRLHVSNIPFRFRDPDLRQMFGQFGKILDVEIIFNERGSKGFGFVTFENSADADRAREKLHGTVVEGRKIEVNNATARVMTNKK"}
{"Sequence": "GCUUCCUCUUCCGGGGCUUCUGGGUGGGCAAACAAGGAAUAAAGGUGAUUCUUGGCUGUGGCCCACUUCCCUUGGGUGCUGUGGCGAGUACUUACUAAUCCUGGAUGGAG", "RBNS enrichment (R)": 0.608}
{"Sequence": "GCUCUGACCGUUCCCACCACCAUCUGCAUGUCCCCACUGGGCCUGAGUCUAGCCUGGGAGCCAGGAUACUGGGGUCCUUUUCCCACUCUUCCACUGACUUGCUGUGUGAC", "RBNS enrichment (R)": 11.2}
{"Sequence": "CUUGAUGGCUUUGCGGAGCCCCUGCAAAGUGUCACUAGUCAAUGGGAACAAGAGGAAUGUCCCCUGGUCUGGAAGUGUGCUAAGUGGAAGGAAUGGGCUGUGAGACUGGA", "RBNS enrichment (R)": 1.03}
{"Sequence": "CAAGAUGAAAUCUCAAUAAAUUAUUUUUGAGUUUAUUAAAGAUUGACAUUUUAAGUACAACUUUUAAGGACUAAUUACUGUGAUGGACACAGAAAUGUAGCUGUGUUCUG", "RBNS enrichment (R)": 0.469}
{"Sequence": "UUUGUCUUCCGGCUGCUCAGGGCUCUCACGCCCAGACCCUGCUUUAGAGUCCUGGAGUGACCACAGCCCCUGCCCCCUGUCCCUGAGAGGUACAAGAGCCUGUUUACCUC", "RBNS enrichment (R)": 0.328}
{"Sequence": "GGGCAACUAUUAUUAUCCCUAUUUUACAAAACUGAGGCUUAGUGAGGUUCAGCCACAUGCCUAGACUUAUAUACUAGUUAGUGGUGCAGCCAGGGAGAGGACUCAGAUUU", "RBNS enrichment (R)": 0.282}
{"Sequence": "AGGCCCUCAAUUGUAGUUGUUUCCAGCUGAAUUAAGAGCUUUAAAGUUUCUGGCAUUAGCAGAUGAUUUCUGUUCACCUGGUAAGAAAAGAAUGAUAGGCUUGUCAGAGC", "RBNS enrichment (R)": 0.311}
{"Sequence": "GGACUCUCCUUUCCCUUUGUUAGUGUCCUGGGUUCCCAUGGACUCAGGGAUUUGUUGGCUAAGGUUUCUCUGUGCAUAUAUAUAUAUAUACAUAUGUAUAUAUAUUUAAA", "RBNS enrichment (R)": 0.796}
{"data": "Sample 2", "target": "CCNB2, cyclin fold, Cln2 fusion (human)", "method": "yeast growth competition, sequencing", "medium": "yeast", "notes": "weak parent motif", "reference": "not given", "direction": "higher = stronger binding", "starting sequence": "KIF20B docking peptide (human); KRAKRKLYTSEIS; partner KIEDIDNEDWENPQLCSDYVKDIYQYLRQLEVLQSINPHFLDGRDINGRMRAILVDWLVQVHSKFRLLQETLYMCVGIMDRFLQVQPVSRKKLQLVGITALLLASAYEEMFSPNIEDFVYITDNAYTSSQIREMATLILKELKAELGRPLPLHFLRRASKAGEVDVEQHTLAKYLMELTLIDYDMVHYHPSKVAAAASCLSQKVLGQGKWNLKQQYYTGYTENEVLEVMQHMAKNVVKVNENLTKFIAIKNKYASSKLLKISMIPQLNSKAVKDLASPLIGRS"}
{"Variant": "KRAKRKLYTSEIA [S13A]", "normalised enrichment score": 0.865}
{"Variant": "KRAKRKLYTSAIS [E11A]", "normalised enrichment score": 0.997}
{"Variant": "KRAKRALYTSEIS [K6A]", "normalised enrichment score": 0.813}
{"Variant": "ARAKRKLYTSEIS [K1A]", "normalised enrichment score": 0.546}
{"Variant": "KAAKRKLYTSEIS [R2A]", "normalised enrichment score": 0.369}
{"Variant": "KRAKRKLYTSEAS [I12A]", "normalised enrichment score": 0.603}
{"data": "Sample 3", "target": "ABI1, truncated, D143A, DHFR fusion (Arabidopsis thaliana)", "method": "DHFR PCA, deep sequencing", "medium": "yeast", "notes": "methotrexate growth selection, single substitutions", "added": "(+)-ABA 200 µM", "reference": "wild-type fitted maximum", "direction": "higher = stronger binding", "starting sequence": "PYL1, truncated, DHFR fusion (Arabidopsis thaliana); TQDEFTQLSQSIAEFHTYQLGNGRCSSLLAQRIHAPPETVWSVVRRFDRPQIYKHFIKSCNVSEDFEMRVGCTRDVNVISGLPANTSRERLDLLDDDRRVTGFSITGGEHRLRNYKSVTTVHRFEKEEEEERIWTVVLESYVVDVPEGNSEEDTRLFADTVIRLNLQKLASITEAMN"}
{"Variant": "S27D", "relative binding score": "93.4%"}
{"Variant": "R49G", "relative binding score": "77.3%"}
{"Variant": "R132N", "relative binding score": "104%"}
{"Variant": "P36L", "relative binding score": "91.6%"}
{"Variant": "R45I", "relative binding score": "9.03%"}
{"Variant": "Y18K", "relative binding score": "88.8%"}
{"Variant": "I105P", "relative binding score": "-11.5%"}
{"Variant": "G81E", "relative binding score": "32.7%"}
{"Variant": "I133Y", "relative binding score": "103%"}
{"Variant": "F157G", "relative binding score": "0.539%"}
{"Variant": "S104A", "relative binding score": "68.5%"}
{"data": "Sample 4", "target": "CREB3L3, bZIP domain (human)", "method": "DHFR protein complementation", "medium": "yeast", "notes": "single substitutions, most at no-binding floor", "reference": "wild-type JUN-FOS pair", "direction": "higher = stronger binding", "starting sequence": "JUN, bZIP domain (human); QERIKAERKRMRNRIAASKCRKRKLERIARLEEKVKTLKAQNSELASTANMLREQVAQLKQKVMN; partner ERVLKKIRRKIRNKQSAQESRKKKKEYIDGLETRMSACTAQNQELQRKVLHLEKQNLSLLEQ"}
{"Variant": "T37L", "binding fitness [natural log]": -1.53}
{"Variant": "A57E", "binding fitness [natural log]": -1.55}
{"Variant": "A49Y", "binding fitness [natural log]": -1.5}
{"Variant": "K39H", "binding fitness [natural log]": -1.45}
{"Variant": "L52Y", "binding fitness [natural log]": -1.5}
{"Variant": "I28F", "binding fitness [natural log]": -1.43}
{"Variant": "E33T", "binding fitness [natural log]": -1.49}
{"Variant": "S43A", "binding fitness [natural log]": -1.35}
{"Variant": "E33H", "binding fitness [natural log]": -1.5}
{"Variant": "I28H", "binding fitness [natural log]": -1.04}
{"Variant": "A46D", "binding fitness [natural log]": -1.52}
{"Variant": "T48A", "binding fitness [natural log]": -1.47}
{"Variant": "V35N", "binding fitness [natural log]": -1.51}
{"Variant": "A49D", "binding fitness [natural log]": -1.57}
{"Variant": "T48Q", "binding fitness [natural log]": -1.35}
{"Variant": "K39S", "binding fitness [natural log]": -1.44}
{"Variant": "T48G", "binding fitness [natural log]": -1.39}
{"Variant": "K36E", "binding fitness [natural log]": -1.31}
{"Variant": "T48Y", "binding fitness [natural log]": -1.62}
{"Variant": "E54Q", "binding fitness [natural log]": -1.48}
{"Variant": "A40L", "binding fitness [natural log]": -1.5}
{"Variant": "E44F", "binding fitness [natural log]": -1.32}
{"Variant": "L45R", "binding fitness [natural log]": -1.48}
{"Variant": "L52G", "binding fitness [natural log]": -1.51}
{"Variant": "E33G", "binding fitness [natural log]": -1.46}
{"note": "Some of these lines once more (sample 4):"}
{"Variant": "K36E", "binding fitness [natural log]": -1.31}
{"Variant": "A46D", "binding fitness [natural log]": -1.52}
{"Variant": "T48Q", "binding fitness [natural log]": -1.35}
{"Variant": "A49D", "binding fitness [natural log]": -1.57}
{"Variant": "A40L", "binding fitness [natural log]": -1.5}
